{"data": "Measured values pooled from the literature", "HLA class I histocompatibility antigen, A alpha chain allele A*02:01": "HLA class I histocompatibility antigen, A alpha chain, allele A*02:01 (Homo sapiens, UniProt P04439)", "HLA class I histocompatibility antigen, A alpha chain allele A*26:01": "HLA class I histocompatibility antigen, A alpha chain, allele A*26:01 (Homo sapiens, UniProt P04439)", "HLA class I histocompatibility antigen, A alpha chain allele A*24:02": "HLA class I histocompatibility antigen, A alpha chain, allele A*24:02 (Homo sapiens, UniProt P04439)", "HLA class I histocompatibility antigen, A alpha chain allele A*01:01": "HLA class I histocompatibility antigen, A alpha chain, allele A*01:01 (Homo sapiens, UniProt P04439)", "BACE1": "Beta-secretase 1 (BACE1, Homo sapiens, UniProt P56817)", "note": "Compare with care: the assays were run in different laboratories. ± gives the spread as reported.", "chain of UniProt P56817 (whole entry, looked up)": "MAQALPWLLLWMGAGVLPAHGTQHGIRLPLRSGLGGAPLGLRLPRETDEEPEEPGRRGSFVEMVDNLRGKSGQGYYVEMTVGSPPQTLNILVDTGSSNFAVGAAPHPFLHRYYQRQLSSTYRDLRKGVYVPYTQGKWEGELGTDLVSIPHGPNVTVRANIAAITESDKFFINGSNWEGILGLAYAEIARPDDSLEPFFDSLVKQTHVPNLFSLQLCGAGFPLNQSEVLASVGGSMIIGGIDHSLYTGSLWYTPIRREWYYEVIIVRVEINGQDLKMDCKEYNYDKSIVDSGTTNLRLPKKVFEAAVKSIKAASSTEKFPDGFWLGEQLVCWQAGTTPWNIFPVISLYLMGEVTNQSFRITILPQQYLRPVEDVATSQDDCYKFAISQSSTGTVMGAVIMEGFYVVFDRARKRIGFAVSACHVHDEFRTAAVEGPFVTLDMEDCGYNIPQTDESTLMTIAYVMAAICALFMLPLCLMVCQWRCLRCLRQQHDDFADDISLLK", "chain of UniProt Q99685 (whole entry, looked up)": "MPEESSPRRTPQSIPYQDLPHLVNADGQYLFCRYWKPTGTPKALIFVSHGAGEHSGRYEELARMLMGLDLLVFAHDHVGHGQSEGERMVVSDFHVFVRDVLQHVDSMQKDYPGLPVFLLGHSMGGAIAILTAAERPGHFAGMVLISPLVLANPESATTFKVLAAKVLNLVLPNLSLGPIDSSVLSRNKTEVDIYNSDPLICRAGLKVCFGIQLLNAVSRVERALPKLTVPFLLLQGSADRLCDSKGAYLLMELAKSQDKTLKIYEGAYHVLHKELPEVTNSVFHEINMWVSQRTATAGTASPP", "chain of UniProt Q13258 (whole entry, looked up)": "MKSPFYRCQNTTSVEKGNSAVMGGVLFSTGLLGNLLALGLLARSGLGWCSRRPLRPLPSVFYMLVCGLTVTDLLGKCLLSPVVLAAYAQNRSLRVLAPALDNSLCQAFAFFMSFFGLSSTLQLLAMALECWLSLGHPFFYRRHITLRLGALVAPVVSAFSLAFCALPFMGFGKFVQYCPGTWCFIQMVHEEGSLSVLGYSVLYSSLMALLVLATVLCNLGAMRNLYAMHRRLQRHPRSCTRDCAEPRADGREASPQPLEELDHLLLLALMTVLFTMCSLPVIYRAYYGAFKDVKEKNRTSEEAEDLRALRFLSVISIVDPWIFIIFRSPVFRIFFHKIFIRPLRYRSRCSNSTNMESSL", "chain of UniProt Q13393 (whole entry, looked up)": "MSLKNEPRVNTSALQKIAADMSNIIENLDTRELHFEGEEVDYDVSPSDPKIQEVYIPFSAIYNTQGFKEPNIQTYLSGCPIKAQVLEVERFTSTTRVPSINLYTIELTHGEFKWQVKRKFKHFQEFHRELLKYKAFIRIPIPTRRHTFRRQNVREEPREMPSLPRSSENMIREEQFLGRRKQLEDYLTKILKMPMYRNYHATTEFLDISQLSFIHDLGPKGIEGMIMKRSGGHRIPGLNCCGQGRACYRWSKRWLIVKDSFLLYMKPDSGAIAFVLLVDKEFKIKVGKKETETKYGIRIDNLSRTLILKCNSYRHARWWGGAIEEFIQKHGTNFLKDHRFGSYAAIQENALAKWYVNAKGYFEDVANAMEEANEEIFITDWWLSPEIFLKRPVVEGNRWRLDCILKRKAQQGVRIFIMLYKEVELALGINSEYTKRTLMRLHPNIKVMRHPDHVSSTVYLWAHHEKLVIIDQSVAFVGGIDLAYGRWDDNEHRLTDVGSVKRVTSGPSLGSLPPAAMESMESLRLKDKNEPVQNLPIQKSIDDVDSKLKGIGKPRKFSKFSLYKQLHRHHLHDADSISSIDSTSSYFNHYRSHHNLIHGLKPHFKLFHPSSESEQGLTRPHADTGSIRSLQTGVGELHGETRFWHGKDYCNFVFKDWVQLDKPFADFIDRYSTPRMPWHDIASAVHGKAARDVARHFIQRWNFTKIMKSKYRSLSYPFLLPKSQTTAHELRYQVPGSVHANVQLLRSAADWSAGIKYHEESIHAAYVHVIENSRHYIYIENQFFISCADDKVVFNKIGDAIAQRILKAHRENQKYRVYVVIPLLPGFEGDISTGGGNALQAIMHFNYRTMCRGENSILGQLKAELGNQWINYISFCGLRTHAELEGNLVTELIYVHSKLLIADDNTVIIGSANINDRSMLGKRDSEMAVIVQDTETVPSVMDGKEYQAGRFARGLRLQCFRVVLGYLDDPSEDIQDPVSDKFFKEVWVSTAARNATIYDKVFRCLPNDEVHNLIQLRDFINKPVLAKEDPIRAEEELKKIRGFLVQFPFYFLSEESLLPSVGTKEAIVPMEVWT", "chain of UniProt Q9UBZ9 (whole entry, looked up)": "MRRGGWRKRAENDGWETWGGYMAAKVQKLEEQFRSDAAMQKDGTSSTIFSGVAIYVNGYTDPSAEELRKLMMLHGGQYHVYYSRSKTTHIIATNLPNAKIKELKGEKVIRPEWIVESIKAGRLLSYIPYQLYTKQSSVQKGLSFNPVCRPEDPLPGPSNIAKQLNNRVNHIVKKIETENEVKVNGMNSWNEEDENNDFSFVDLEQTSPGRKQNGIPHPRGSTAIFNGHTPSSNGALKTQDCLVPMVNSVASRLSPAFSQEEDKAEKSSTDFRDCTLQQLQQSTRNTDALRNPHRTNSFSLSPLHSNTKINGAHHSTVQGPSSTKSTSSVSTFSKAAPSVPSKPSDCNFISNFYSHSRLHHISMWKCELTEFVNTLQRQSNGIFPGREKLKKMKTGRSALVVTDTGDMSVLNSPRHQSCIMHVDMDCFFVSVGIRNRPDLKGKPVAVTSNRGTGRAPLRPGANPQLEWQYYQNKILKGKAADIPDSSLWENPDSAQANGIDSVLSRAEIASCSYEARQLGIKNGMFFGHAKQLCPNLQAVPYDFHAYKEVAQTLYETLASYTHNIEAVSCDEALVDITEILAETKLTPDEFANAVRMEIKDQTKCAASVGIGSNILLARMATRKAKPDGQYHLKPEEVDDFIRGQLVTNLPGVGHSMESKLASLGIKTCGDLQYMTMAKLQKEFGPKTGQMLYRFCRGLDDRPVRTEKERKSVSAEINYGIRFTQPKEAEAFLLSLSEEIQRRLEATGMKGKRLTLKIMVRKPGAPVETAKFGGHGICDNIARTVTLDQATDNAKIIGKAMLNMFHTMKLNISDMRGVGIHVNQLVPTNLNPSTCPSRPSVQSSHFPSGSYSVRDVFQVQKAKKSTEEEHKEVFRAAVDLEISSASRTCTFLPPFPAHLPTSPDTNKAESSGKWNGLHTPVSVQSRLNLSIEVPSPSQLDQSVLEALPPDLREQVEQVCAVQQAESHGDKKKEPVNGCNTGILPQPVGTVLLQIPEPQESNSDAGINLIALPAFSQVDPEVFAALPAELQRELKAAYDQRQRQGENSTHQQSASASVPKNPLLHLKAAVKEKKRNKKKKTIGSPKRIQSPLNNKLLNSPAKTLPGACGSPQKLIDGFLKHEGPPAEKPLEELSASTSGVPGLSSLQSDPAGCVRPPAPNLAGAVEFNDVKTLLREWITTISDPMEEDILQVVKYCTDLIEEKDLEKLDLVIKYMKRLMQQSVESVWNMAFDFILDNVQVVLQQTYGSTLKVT", "chain of UniProt P31323 (whole entry, looked up)": "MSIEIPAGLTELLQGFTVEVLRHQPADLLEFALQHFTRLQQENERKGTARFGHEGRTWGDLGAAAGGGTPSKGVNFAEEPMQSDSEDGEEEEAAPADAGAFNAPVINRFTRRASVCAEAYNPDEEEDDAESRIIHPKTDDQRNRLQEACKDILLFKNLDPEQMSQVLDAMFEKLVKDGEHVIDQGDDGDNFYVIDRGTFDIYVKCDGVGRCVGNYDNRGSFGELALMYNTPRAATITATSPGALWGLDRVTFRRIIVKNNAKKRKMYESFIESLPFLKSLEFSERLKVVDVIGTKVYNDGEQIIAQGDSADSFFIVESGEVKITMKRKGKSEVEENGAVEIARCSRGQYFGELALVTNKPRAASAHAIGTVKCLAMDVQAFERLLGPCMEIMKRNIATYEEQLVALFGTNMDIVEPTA", "chain of UniProt P08684 (whole entry, looked up)": "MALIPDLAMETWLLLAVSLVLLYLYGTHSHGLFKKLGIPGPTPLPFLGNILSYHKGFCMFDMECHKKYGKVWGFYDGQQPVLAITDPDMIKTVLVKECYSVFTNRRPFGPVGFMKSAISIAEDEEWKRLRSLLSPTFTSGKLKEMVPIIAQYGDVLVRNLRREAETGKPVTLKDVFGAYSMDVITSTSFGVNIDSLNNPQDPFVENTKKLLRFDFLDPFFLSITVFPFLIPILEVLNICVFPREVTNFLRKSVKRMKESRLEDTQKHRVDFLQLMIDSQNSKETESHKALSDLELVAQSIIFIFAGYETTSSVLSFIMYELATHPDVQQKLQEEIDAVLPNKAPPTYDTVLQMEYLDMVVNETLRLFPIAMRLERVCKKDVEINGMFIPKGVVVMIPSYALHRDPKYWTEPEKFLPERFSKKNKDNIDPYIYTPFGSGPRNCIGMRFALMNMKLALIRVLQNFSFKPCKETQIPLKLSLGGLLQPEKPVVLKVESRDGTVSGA", "chain of UniProt O15244 (whole entry, looked up)": "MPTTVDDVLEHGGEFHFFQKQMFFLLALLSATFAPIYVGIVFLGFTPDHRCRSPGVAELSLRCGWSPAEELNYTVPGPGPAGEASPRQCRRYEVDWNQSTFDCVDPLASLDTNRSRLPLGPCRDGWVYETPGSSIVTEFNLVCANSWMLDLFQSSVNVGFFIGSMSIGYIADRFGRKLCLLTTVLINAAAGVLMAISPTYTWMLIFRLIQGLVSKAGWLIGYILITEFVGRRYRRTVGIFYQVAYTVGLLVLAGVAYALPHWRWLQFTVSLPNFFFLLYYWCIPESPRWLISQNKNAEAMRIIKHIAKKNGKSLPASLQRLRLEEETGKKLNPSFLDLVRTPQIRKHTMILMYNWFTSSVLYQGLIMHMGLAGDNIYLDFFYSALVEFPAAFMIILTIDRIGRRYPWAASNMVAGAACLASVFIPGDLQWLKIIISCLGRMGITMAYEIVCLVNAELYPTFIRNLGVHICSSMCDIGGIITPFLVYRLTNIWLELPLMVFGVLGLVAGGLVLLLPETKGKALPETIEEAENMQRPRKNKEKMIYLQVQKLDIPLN"}
{"Compound": "C[C@H]1COCCN1c1nc(NCc2cccnc2C(F)(F)F)c2cccnc2n1", "target": "human GABA receptor", "IC50 [µM]": "> 100"}
{"Compound": "OC[C@H]1O[C@@H](OCCc2ccccc2)[C@H](O)[C@@H](O)[C@H]1O", "target": "lacI (Escherichia coli, UniProt P03023, D149A/N125A)", "test": "inhibitor", "IC50 [µM]": 170}
{"Compound": "CC[C@H](C)[C@H](NC(=O)[C@H](CCCNC(=N)N)NC(=O)[C@H](CC(=O)O)NC(=O)[C@H](Cc1ccccc1)NC(=O)[C@@H](NC(=O)[C@H](C)N)[C@@H](C)O)C(=O)N[C@@H](Cc1c[nH]cn1)C(=O)N[C@@H](CCC(N)=O)C(=O)N[C@@H](Cc1ccccc1)C(=O)O", "target": "HLA class I histocompatibility antigen, A alpha chain allele A*02:01", "test": "binding", "IC50 [µM]": 43.3}
{"Compound": "CC(C)C[C@H](NC(=O)[C@H](CCC(N)=O)NC(=O)[C@H](Cc1ccccc1)NC(=O)[C@H](C)NC(=O)[C@H](CCCCN)NC(=O)[C@H](CC(=O)O)NC(=O)[C@H](CCC(=O)O)NC(=O)[C@@H](N)CC(C)C)C(=O)O", "target": "HLA class I histocompatibility antigen, A alpha chain allele A*26:01", "test": "peptide-MHC binding, radioligand competition binding", "IC50 [µM]": "> 70"}
{"Compound": "CC(O)C(C)n1ncn(-c2ccc(N3CCN(c4ccc(OCC5COC(Cn6cncn6)(c6ccc(Cl)cc6Cl)O5)cc4)CC3)cc2)c1=O (centres unmarked)", "target": "Cytochrome P450 3A4 (CYP3A4, Homo sapiens, UniProt P08684)", "test": "inhibitor", "test system": "human liver microsomes", "conditions": "with: midazolam", "IC50 [µM]": "0.0164 ± 0.023"}
{"Compound": "CC[C@H](C)[C@H](NC(=O)[C@H](Cc1c[nH]cn1)NC(=O)CNC(=O)[C@H](Cc1ccc(O)cc1)NC(=O)[C@H](CCC(N)=O)NC(=O)[C@@H](N)Cc1c[nH]cn1)C(=O)N[C@@H](CC(C)C)C(=O)N[C@@H](CCC(N)=O)C(=O)N[C@@H](Cc1ccc(O)cc1)C(=O)O", "target": "HLA class I histocompatibility antigen, A alpha chain allele A*24:02", "test": "binding", "IC50 [µM]": 67.5}
{"Compound": "O=C(OC(C(F)(F)F)C(F)(F)F)N1CCN(Cc2cccc(Oc3ccccc3)c2)CC1", "target": "MGLL (Homo sapiens, UniProt Q99685)", "test": "enzyme activity, inhibitor", "conditions": "with: FP-biotin 1 µM", "IC50 [µM]": 0.0537}
{"Compound": "CC/C(=C(\\c1ccc(O)cc1)c1ccc(OCCN(C)C)cc1)c1ccccc1", "target": "Phospholipase D1 (Homo sapiens, UniProt Q13393)", "test": "enzyme activity, inhibitor", "test system": "human cells", "IC50 [µM]": 4.9}
{"Compound": "CSCC[C@H](NC(=O)[C@H](CC(C)C)NC(=O)[C@@H](N)CCCNC(=N)N)C(=O)N[C@@H](CC(=O)O)C(=O)N[C@@H](CCCCN)C(=O)N1CCC[C@H]1C(=O)N[C@@H](Cc1c[nH]cn1)C(=O)N[C@@H](CO)C(=O)N[C@@H](Cc1ccc(O)cc1)C(=O)O", "target": "HLA class I histocompatibility antigen, A alpha chain allele A*01:01", "test": "binding", "IC50 [µM]": 34.8}
{"Compound": "CC(C)CCC[C@@H](C)[C@H]1CC[C@H]2[C@@H]3CC=C4C[C@@H](OCCCNC(=O)CCC(=O)NCCCC[C@H](NC(=O)[C@H]5CCCN5C(=O)[C@H](CCC(=O)O)NC(=O)[C@H](C)NC(=O)[C@@H](NC(=O)C[C@H](O)[C@H](CC(C)C)NC(=O)[C@H](CC(N)=O)NC(=O)[C@@H](NC(=O)[C@@H](N)CCC(=O)O)C(C)C)C(C)C)C(N)=O)CC[C@]4(C)[C@H]3CC[C@]12C", "target": "BACE1", "test": "Aβ40 lowering, AlphaLISA, item: Aβ40", "test system": "HEK293 expressing wild-type human APP695", "IC50 [µM]": 0.00014}
{"Compound": "COc1cc(Nc2ncc(F)c(Nc3ccc4c(n3)NC(=O)C(C)(C)O4)n2)cc(OC)c1OC", "target": "PTGDR (Homo sapiens, UniProt Q13258)", "IC50 [µM]": "> 10"}
{"Compound": "O=C(CP(=O)(O)O)NO", "target": "Alpha-enolase (ENO1, Homo sapiens, UniProt P06733)", "test": "enzyme activity, inhibitor", "test system": "cancer cell lysate", "IC50 [µM]": "0.021 ± 0.0031"}
{"Compound": "C[C@H]1CN(c2n[nH]c3nc(N[C@H]4CC[C@H](NS(=O)(=O)CCC(F)(F)F)CC4)ncc23)CCO1", "target": "PRKAR2B (Homo sapiens, UniProt P31323)", "test": "biochemical", "IC50 [µM]": "≥ 20"}
{"Compound": "CNC(C)Cc1ccc2nsnc2c1 (centres unmarked)", "target": "SLC22A2 (Homo sapiens, UniProt O15244)", "IC50 [µM]": "19.1 ± 18.7"}
{"Compound": "O=CCc1ccccc1", "target": "uncharacterized protein (Drosophila suzukii, UniProt A0AB39ZGK5)", "test": "binding, bis-ANS competition fluorescence", "conditions": "pH 7.4, with: bis-ANS", "IC50 [µM]": "> 50"}
{"Compound": "CCCCC/C=C\\C/C=C\\C/C=C\\C/C=C\\CCCC(=O)Nc1ccc(O)cc1", "target": "SCN10A (Homo sapiens, UniProt Q9Y5Y9)", "test": "peak sodium current, inhibitor, whole-cell patch clamp", "test system": "ND7/23", "conditions": "holding potential -80 mV", "IC50 [µM]": "0.055 ± 0.0086"}
{"Compound": "O=C1Cc2cc(-c3ccco3)ccc2C(=O)N1O", "target": "Holliday junction resolvase (Fowlpox virus, UniProt Q9J546)", "IC50 [µM]": 0.084}
{"Compound": "COc1ncccc1-c1cnn2ccc(N3CCN(C(=O)OC(C)C)CC3)nc12", "target": "ADRA1D (Homo sapiens, UniProt P25100)", "test": "liability screen", "IC50 [µM]": "> 30"}
{"Compound": "CSCC[C@H](NC(=O)[C@@H](N)Cc1ccc(O)cc1)C(=O)N[C@@H](CC(=O)O)C(=O)N[C@@H](CO)C(=O)N[C@@H](Cc1c[nH]cn1)C(=O)NCC(=O)N[C@@H](Cc1ccccc1)C(=O)N[C@@H](CO)C(=O)N[C@@H](Cc1ccccc1)C(=O)O", "target": "HLA class I histocompatibility antigen, A alpha chain allele A*01:01", "test": "binding", "IC50 [µM]": 1.64}
{"Compound": "CC(C)[C@H](NC(=O)[C@@H](NC(=O)[C@H](CCC(=O)O)NC(=O)[C@@H](NC(=O)[C@H](Cc1ccccc1)NC(=O)[C@H](C)NC(=O)[C@H](CO)NC(=O)[C@@H](NC(=O)[C@@H](N)CO)[C@@H](C)O)C(C)C)[C@@H](C)O)C(=O)O", "target": "HLA class I histocompatibility antigen, A alpha chain allele A*26:01", "test": "peptide-MHC binding, radioligand competition binding", "IC50 [µM]": 12.1}
{"Compound": "CSCC[C@H](NC(=O)[C@H](C)N)C(=O)N[C@@H](Cc1ccc(O)cc1)C(=O)NCC(=O)N[C@@H](CCCNC(=N)N)C(=O)N[C@@H](CO)C(=O)N[C@@H](CC(C)C)C(=O)N[C@@H](CCC(N)=O)C(=O)N[C@@H](Cc1ccccc1)C(=O)O", "target": "HLA class I histocompatibility antigen, A alpha chain allele A*02:01", "test": "binding", "IC50 [µM]": 0.952}
{"Compound": "Nc1c2c(nc3c1C(c1ccc(Cl)c(Cl)c1)c1ccc(OCC(=O)c4ccccc4)cc1O3)CCCC2 (centres unmarked)", "target": "BACE1", "test": "enzyme activity, inhibitor", "IC50 [µM]": 2.12}
{"Compound": "C[C@@]1(O)CC[C@@]2(C)[C@@H](CC[C@@H]3[C@@H]2CC[C@]2(C)[C@@H]([N+](=O)[O-])CC[C@@H]32)C1", "target": "GABAA receptor, rat", "test": "radioligand binding", "test system": "rat cerebral cortex homogenate", "conditions": "with: 6.25 µM GABA", "IC50 [µM]": "0.0179 ± 0.0062"}
{"Compound": "CC[C@H](C)[C@H](NC(=O)[C@H](CC(=O)O)NC(=O)[C@H](Cc1ccc(O)cc1)NC(=O)[C@H](CCC(N)=O)NC(=O)[C@@H](N)Cc1ccccc1)C(=O)N1CCC[C@H]1C(=O)N[C@@H](Cc1c[nH]cn1)C(=O)N[C@@H](CCC(=O)O)C(=O)N[C@@H](CCSC)C(=O)O", "target": "HLA class I histocompatibility antigen, A alpha chain allele A*01:01", "test": "binding", "IC50 [µM]": 74.9}
{"Compound": "CC(C)C[C@H](NC(=O)[C@H](CCC(N)=O)NC(=O)[C@H](CC(=O)O)NC(=O)[C@H](C)NC(=O)[C@@H](N)Cc1c[nH]cn1)C(=O)N[C@H](C(=O)N1CCC[C@H]1C(=O)N[C@H](C(=O)N[C@@H](Cc1c[nH]c2ccccc12)C(=O)O)[C@@H](C)O)[C@@H](C)O", "target": "HLA class I histocompatibility antigen, A alpha chain allele A*02:01", "test": "peptide-MHC binding, radioligand competition binding", "IC50 [µM]": "> 70"}
{"Compound": "CSCC[C@H](NC(=O)[C@@H](N)CCCCN)C(=O)N[C@@H](Cc1ccccc1)C(=O)N[C@@H](CC(=O)O)C(=O)N[C@@H](CCC(=O)O)C(=O)N[C@@H](Cc1ccccc1)C(=O)N[C@@H](Cc1c[nH]cn1)C(=O)N[C@H](C(=O)N[C@@H](Cc1ccc(O)cc1)C(=O)O)C(C)C", "target": "HLA class I histocompatibility antigen, A alpha chain allele A*24:02", "test": "binding", "IC50 [µM]": 21.5}
{"Compound": "CCCc1cc(C(=O)OC)c(NC(=O)C2CCN(C(C)=O)CC2)s1", "target": "DNA repair protein REV1, C-terminal domain (Homo sapiens, UniProt Q9UBZ9)", "test": "inhibitor", "IC50 [µM]": 2.9}
{"Compound": "CC(C)[C@H](NC(=O)[C@@H](N)Cc1ccc(O)cc1)C(=O)N[C@@H](Cc1ccc(O)cc1)C(=O)N[C@@H](CCC(N)=O)C(=O)N[C@@H](Cc1c[nH]cn1)C(=O)N1CCC[C@H]1C(=O)N[C@@H](Cc1c[nH]cn1)C(=O)N[C@H](C(=O)N[C@@H](Cc1ccc(O)cc1)C(=O)O)[C@@H](C)O", "target": "HLA class I histocompatibility antigen, A alpha chain allele A*01:01", "test": "binding", "IC50 [µM]": 10.4}
{"Compound": "O=S(=O)(F)c1ccc(S(=O)(=O)Nc2cc(F)cc(C3CC3)c2)c2c1CCCC2", "target": "RALB (Homo sapiens, UniProt P11234)", "IC50 [µM]": 2}
{"note": "A few entries again:"}
{"Compound": "COc1ncccc1-c1cnn2ccc(N3CCN(C(=O)OC(C)C)CC3)nc12", "target": "ADRA1D (Homo sapiens, UniProt P25100)", "test": "liability screen", "IC50 [µM]": "> 30"}
{"Compound": "O=C1Cc2cc(-c3ccco3)ccc2C(=O)N1O", "target": "Holliday junction resolvase (Fowlpox virus, UniProt Q9J546)", "IC50 [µM]": 0.084}
